Measurements of several laboratories.
A part holds a random share of what one study measured.

Series 1 — method: protein-binding microarray; molecule type: double-stranded DNA, one strand shown; matrix: in vitro; tested at: 940 nM top; notes: 60-bp whole probe; together with: salmon DNA 0.4 mg/ml; relative to: random background probes; direction: higher = stronger binding; constant ends, left off below: GCCTAGCAC … GTCTTGATTCGCTTGACGCTGCTG
Target: Interferon regulatory factor 5, full length, phosphomimetic (IRF5, Homo sapiens, UniProt Q13568-2, residues 1-514, S451D/S453D/S456D/S462D)
Strand	fitted relative affinity [z-score]
TTAGGTTTCGGTATCAGTTAGTGCTAG	14.4
ATTCCTCTCACCTCGGCCTCGTGCTAG	2
TTCGATATCAGTCTCGATTAGTGCTAG	3.12
GTTTCTTTTCTTTTCTTTTTGTGCTAG	2.99
AGATATTTAGAACTTCTCCACGTGCTA	0.0433
GTAGATATCGGGTATCGATTAGTGCTA	2.93
GCCAAACACCCACATTCACCGTGCTAG	1.23
GACGGTCTCGGACTGCGGACGTGCTAG	0.689
GACGACCTCAGTCTCGAGACGTGCTAG	1.11
TCACCTATCTCCTCACAGACTGTGCTA	1.02
TTTGGTCTCGGACTGGGTTAGTGCTAG	2.57
TCATCTCCATTTTTCTAACTGTGCTAG	1.39
GACTATATCAGTCTCGAGACGTGCTAG	1.13
TTAGGTTGCGGGACTGGGTTAGTGCTA	0.248
TCTCTGCTACCCTTTGAAAGTGTGCTA	4.25
GACGGACTGCACTATCGGGACGTGCTA	-0.377
AAGGATTTCAGTTTCTCTTTGTGCTAG	2.99
TCAATTTACATTTTAGTACTGTGCTAG	0.173
GACTATTCCAGTTTCGAGACGTGCTAG	4.77
GACGGTTTCGGGACTGTGGACGTGCTA	6.79
GACGGACTGCTTCTTCTGACGTGCTAG	-0.179
TTAGTTTTCAGTCTCGATTAGTGCTAG	4.71
TTAGGTCTGGGGACTGGGTTAGTGCTA	-0.499
GACGTACTGCTTCTCCTGACGTGCTAG	0.237
TCAATTTTCTCTGTTCTACTGTGCTAG	1.89

Series 2 — method: RNA Bind-n-Seq; molecule type: RNA; matrix: in vitro; tested at: 365 nM; relative to: no-protein control; direction: higher = stronger binding
Target: RNA binding protein fox-1 homolog 2, RRM domain, GST-SBP tag (RBFOX2, Homo sapiens, UniProt O43251-10, residues 100-194)
Notes: natural RNA segment, single round, ends assumed
Target sequence (chain): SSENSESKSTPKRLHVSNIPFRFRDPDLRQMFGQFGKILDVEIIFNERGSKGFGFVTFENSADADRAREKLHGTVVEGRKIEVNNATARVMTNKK
Strand	RBNS enrichment (R)
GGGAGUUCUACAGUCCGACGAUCGACUGACCCCUCAGGCCCCUAGGCUGGGGGGUUGUAAAUAACAGCAGUCAGGUUGUUUACCAGCCCUUUGCACCUCCCCAGGCAGAGGGAGCCUCUGUUCUGGUGGGGGCUGGAAUUCUCGGGUGCCAA	0.444
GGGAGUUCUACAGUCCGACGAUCCAGCCAUUCUUCCUGCUUCUGGCCUCGGAGCUGCUUGUCUCCAGAUGCCCUCCUGAAACCAUGAGAAGCUUCAGCCUUGCCUCACUGGCUUCCCCAUCUGACCCCACCAGUGGAAUUCUCGGGUGCCAA	1.27
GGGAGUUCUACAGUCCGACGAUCAUCAUUUAUUUAUUGGUGCUACUGUUUAUCCGUAAUAAUUGUGGGGGAAAAAGAUAUUAACAUCACGUCUUUGUCUCUAGAGCAGUUUUCCGAGAUAUUCCGUAGUACAUUGGAAUUCUCGGGUGCCAA	0.538
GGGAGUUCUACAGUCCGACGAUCGUAUCAGAGAAUGCUGGUAGCUUAAAAUUUUUAUUUUAGGACUUGUACUCUGAAUUUUCAGGAACCGUCAAAGGAGCAGCAGCAAAUUCACAUAUUUUCGACUUGAGAAAUGGAAUUCUCGGGUGCCAA	0.325
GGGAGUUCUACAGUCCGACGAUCAUUGCAUAUCUUUGCUAUUCAACAAUGGUGUCCUUCACCACAGUUUCUAAUCUAGAGCACGGAGAACUGGUCUGUCACUUUUAAAAUUAGAUGCCUUUGAUCAGAGUUUGUGGAAUUCUCGGGUGCCAA	0.73
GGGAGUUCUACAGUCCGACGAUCCUGCACACUUUUACUUCUUCCGUCCUUCCUGUCUUUCAAAAUAAAAUCUUAUUUUGGCAAAGGCAAUUUGUUUAGAUGACUUUUUACGGCAACAAAAAGUCCACAUUCCCUGGAAUUCUCGGGUGCCAA	0.954
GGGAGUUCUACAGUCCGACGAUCUCUUCUGGUUGGUAAAAGAUAUGUUCCGGAGAAUAUAGGAACAUGCCCGGAGAGACCUAACCUGUAUGUCCACUUUCAUGCUCUUGUUCCCCAAACCCCUGGGCAUUGUUUGGAAUUCUCGGGUGCCAA	0.956
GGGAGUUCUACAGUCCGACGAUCUGCUGUUUAGAAAGCAUUUAUCUUGCAUUUCUUUAUUCUUUCUAAUUAUCUAAAAUUCAAUAAAAUUUUAUUCAUAUAAAAUAAGUUGUCAUUAAUUAUCAAUACUAACGUGGAAUUCUCGGGUGCCAA	2.2
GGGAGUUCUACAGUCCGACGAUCUCCUGCAGCGUCCAGCCACGGCUCCAGGGCACUGCUCUCCUCCUUGCACCGGUGAAACUCAGGCCACACUCAAGGGCUGACUGUCCAGGCGCUCCCUUCAGCCGCCUCGUUGGAAUUCUCGGGUGCCAA	0.25
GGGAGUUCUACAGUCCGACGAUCAGAGCUGCUGCCCAGCAGAAGUCUUAGAAAUAUGCCUUGAAGCAGCCGUUGUGUAAUUAUGAGCUGGGCAGCCCAGGUAUAGUUAGUUUUAGGCUUGUAGGUUUACUUCCUGGAAUUCUCGGGUGCCAA	0.825
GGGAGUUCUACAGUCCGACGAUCGUUCUAAGACUAAUAUUUUUAGAUCUUUUUACUUCACCUCAUACUUAUCACCAAUGUAUAUCUCCAUUUAUUCAAUAACUUACUGGGGUAAAAUAACAGCAAUAAACCUAUGGAAUUCUCGGGUGCCAA	0.406
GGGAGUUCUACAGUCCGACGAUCUCCAGACCAGGCUGGCCGACAUGGUGAAACCCCAUCUCUACUAAAAAAUAUAAAAAUUAGCCGGGCUUUGUGGCAUGUGCCUGUAAUCCCAGCUAUUUGGCAGGCUGAGGUGGAAUUCUCGGGUGCCAA	0.773

Series 3 — method: RNA Bind-n-Seq; molecule type: RNA; matrix: in vitro; tested at: 200 nM; notes: whole 134-nt RNA, ends assumed; together with: 150 mM KCl; relative to: input library; direction: higher = stronger binding
Target: Ras GTPase-activating protein-binding protein 1, full length (G3BP1, Homo sapiens, UniProt Q13283)
UniProt Q13283, sequence (whole entry, looked up): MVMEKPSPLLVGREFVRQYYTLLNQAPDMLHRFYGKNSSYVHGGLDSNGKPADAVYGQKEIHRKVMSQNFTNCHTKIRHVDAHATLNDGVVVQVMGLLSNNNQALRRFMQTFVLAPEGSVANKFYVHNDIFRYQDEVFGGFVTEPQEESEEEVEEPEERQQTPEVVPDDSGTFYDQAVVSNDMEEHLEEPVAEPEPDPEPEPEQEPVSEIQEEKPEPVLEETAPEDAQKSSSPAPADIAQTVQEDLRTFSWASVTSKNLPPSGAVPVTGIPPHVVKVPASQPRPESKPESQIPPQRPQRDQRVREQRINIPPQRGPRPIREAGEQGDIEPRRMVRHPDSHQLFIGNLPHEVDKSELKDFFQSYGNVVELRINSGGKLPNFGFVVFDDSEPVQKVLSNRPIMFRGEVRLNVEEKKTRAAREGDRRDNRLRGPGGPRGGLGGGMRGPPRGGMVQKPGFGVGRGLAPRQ
Strand	log2 enrichment
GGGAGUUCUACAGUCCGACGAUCUAACUUUAGAGGAGGAUCUGAUGGAUAUGGCAGUGGACGUGGAUUUGGGGAUGGCUAUAAUGGGUAUGGAGCAGGACCUGGAGGUGGCAAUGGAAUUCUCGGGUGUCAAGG	0.196
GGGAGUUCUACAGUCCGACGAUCUUUCUCCACAGGAGCCCCGCAAGUGAGCCAGCCACUGCGAGAGCAGAGUGAGGAUAUACCUGGAGCCAUUUCCUCUGCCCUGGCAGCCAUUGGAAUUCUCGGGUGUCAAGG	0.713
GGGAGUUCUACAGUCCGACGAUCUCAAGUCCUGUGCUACACAUCGUAUGUACCGAAUCGGUUUUUUUGGAAAGGUGGAAAGUAUUAUGUUACGCCGUUCGGAUCUGCACUUCCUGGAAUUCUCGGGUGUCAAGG	-0.81
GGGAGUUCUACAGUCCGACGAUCUUUUUUGUAGUAGGGAGAUCCUUGAUCAUCAGGAUGGUAAUGUAGAAGAUGAUGGGCUUACAGGACUCCUAAGGCUUGCAACAAGUGUUGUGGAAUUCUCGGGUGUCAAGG	0.759
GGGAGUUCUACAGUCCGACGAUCUAACUUUAGAGGAGGAUCUGAUGGAUAUUGCAGUGGACGUGGAUUUGGGGAUGGCUAUAAUGGGUAUGGAGGAGGACCUGGAGGUGGCAAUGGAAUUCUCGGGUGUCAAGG	0.436
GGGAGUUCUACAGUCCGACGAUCCCUGUGCUACACAUCGUAUGUACCGAAUCGGGGUUUGGGGUUUUUUUGGGGAAAAAGGGGAAAGUAUUAUGUUACGCCGUUCGGAUCUGCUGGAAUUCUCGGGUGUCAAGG	0.22
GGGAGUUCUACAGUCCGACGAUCGCCUGGCGCUGGCCAACAAUAGCACCCUCACCAUUGGCACCAUCGAUGAGAUCCAGAAGCUGCACAUUCGCACAGUUCCCCUCUAUGAGUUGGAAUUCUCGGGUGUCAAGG	1.13
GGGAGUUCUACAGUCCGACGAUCGUCCUGUGCUACACAUCGUAUGUACCGAAUCGGGGUUUUUUUGGGGUUUGGGGUGGGGAAAGUAUUAUGUUACGCCGUUCGGAUCUGCACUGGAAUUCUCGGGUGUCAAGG	0.239
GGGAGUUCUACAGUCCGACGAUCUAACUUUAGAGGAGGAUCUGAUGGAUAUGGCAGUGGACGUGGAUUUGGGGAUGGCUAUAAUGGGUAAGGAGGAGGACCUGGAGGUGGCAAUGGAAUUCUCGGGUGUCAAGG	0.414
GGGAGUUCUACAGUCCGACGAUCUCCUGUGCUACACAUCGUAUGUACCGAAUCGGGUUUUUUGGGGUUUUUUGGUUUUUUGGGAAAGUAUUAUGUUACGCCGUUCGGAUCUGCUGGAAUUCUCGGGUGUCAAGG	-0.337

Series 4 — method: RNA Bind-n-Seq; molecule type: RNA; matrix: in vitro; tested at: 100 nM; relative to: input RNA pool; direction: higher = stronger binding
Target: RING finger protein unkempt homolog, zinc fingers 1-6, SBP tag (UNK, Homo sapiens, UniProt Q9C0B0, residues 30-357)
UniProt Q9C0B0, sequence (30-357, looked up): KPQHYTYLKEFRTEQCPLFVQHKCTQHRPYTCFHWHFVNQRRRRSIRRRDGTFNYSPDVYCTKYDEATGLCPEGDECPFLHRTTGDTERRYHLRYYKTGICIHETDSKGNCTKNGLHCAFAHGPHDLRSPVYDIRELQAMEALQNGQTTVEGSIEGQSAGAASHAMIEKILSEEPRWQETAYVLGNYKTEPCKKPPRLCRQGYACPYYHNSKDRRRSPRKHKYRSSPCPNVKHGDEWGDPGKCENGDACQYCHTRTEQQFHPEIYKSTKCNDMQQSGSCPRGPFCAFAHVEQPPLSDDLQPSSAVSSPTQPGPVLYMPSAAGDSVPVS
Notes: RNA with constant flanks, vertebrate orthologous sites, ends assumed
Strand	bound/input enrichment
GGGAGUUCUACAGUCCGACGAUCCAGGGUGGGACCCGGGACCCGCGGCUCAGUGGCCCGCUAGCCACGUCAGCCAAGCCACUUUAGGUCCAUUUUUUAAUUUUAACAGUGCUCUUCCAUCUUGUGCAUAAGCCUGAGAUUUGGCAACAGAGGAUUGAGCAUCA	2.12 ratio
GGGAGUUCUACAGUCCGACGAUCUUUUAUUGAUCAGGUCUGUAAAUGUGUACUAAAAAAAUCAGAGUUUAUUUAUAAACAAAAUAGUUUAUUUAAAGAGAAGGUCUCUUCCUUAUUGAUAUCAUGGUAUGCAUUAAUUCCAUUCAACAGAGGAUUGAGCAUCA	0.248 ratio
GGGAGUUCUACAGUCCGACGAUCCUCUCUUAGCGAUAGUAUUCCAUCUGUAGCAGAUUCGCACUCGAGUCAUUUUUCUGAGUUUAGUUGCUCCGAUAUGGAAAGUAUGAAAACUUCCUGUAGCCAUGGUUCCAGUGACUAUCACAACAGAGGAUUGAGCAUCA	0.62 ratio
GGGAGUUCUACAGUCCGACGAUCGGGCGACUUUGGGCGUCCGCACAGCCGGCGGGGUGACAGCUCGGUCUCGUCCCGGCGGCUUUGCUCUCCUCGCGUGGCCGCGCGUCUCCGCAGACAUGUUCCGCCUGAUCGUCUCCCAGGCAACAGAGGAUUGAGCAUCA	0.385 ratio
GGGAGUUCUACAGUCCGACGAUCAAGGAUCAAAAGUUCAAGACCAUUCUCGGCUACAUCCCAAGUUUGAGGCCAGCUUCAGCUACAUGAGACCGGGAUAGGGUGGGCAGGGAAGGACAACAUGUAGAUCAUUGAAGCUCAGAACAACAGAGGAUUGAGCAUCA	1.33 ratio
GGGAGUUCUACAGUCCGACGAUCUUGUUUCUAUCGGUAUCAGAUUGCAUUUACACACCCGCUGAAACUCUCCUUAAUUUUAUCUUUAGAAACAGAACCAGUAAUACUUCAGUAGUUGAGCUUUUUAAUAUGUUAAAGCUAAUACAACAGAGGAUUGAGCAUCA	0.606 ratio
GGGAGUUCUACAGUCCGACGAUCGCCUCCUCCCCACUGUGAGAGGAAGUGGGUAAAGGCCUAUGACCCUCAACUGUUCAAUCCAGUAUUUUUUUUUUCCUUUUUUAAAGUUACUGUAUUUAUUAUGACGAUGGUGACUCCCCGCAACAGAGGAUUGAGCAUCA	0.479 ratio
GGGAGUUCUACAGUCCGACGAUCGAUUAGUGUCAUACCAGCAUAUUAACCUCUCGUCUGUGCACAGCUUCAAAUGUAACCGUCUAGUUAGAUUUUUAUUUAAAAUAUGAAAAACCGCUUUUCCCAAGACGUUUUUUAAAAACACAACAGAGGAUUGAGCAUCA	1.94 ratio
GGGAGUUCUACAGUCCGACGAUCCUGUGUUAGCACCCCGCCAGCCUACCAGCCUCUCUGUGCCCAGCUUCAAAUGGUAUGGUCUAGCUAGAUUUUUAUUUAAAAUAUGAAAAACUGCUUUUCCCAAGAUGUUUUUUAAAAGGACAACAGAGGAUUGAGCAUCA	0.658 ratio
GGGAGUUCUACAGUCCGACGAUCGCACAUGCCACUGUCACCAAAAACAAACUACCACUUUCCAAAUUUCAUUCAGAGCCAUUUUAGUGUUUUCCUAUUCCCUACCCCUCCCACUACUUUCAAUGAUGAAAUACCCUAAGUUCUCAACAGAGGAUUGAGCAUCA	3.58 ratio
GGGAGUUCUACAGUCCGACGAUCUCCUCAACUUGUUCUAGCUGGCGAUCCUUCAAAGUUGGGUCAGGCAUUAGUGCUAGGUACUAGCAGUGUUCAUUUCUCUGUUGCCAUUGAUCAGAGAGACAAGACGUUAAAAAGAGUAAUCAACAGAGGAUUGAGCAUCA	0.477 ratio

Some of these lines once more (series 1):
Strand	fitted relative affinity [z-score]
GACGGACTGCACTATCGGGACGTGCTA	-0.377
AAGGATTTCAGTTTCTCTTTGTGCTAG	2.99
TCAATTTACATTTTAGTACTGTGCTAG	0.173
GACTATTCCAGTTTCGAGACGTGCTAG	4.77
